Measured values gathered from unrelated publications.
Compare with care: the assays were run in different laboratories. Values joined by “and” are separate records of one study, mostly repeats; a detail may differ. ± gives the spread as reported.

The QRS interval of `C/C(=N\OCCCN1CCCCC1)c1ccc(C(F)(F)F)cc1` is reported as 40 ms (rhesus monkey; dose not given, after dosing).
`CSCC[C@@H]1NC(=O)[C@H](C(C)C)NC(=O)[C@H](CCCNC(=N)N)NC(=O)CNC(=O)[C@@H]2CCCN2C(=O)[C@@H](NC(=O)CNC(=O)[C@H](CO)NC(=O)CNC(=O)[C@H](CO)NC(=S)Nc2ccc(C[C@H]3CN(CC(=O)O)CCN(CC(=O)O)CCN3CC(=O)O)cc2)CSSC[C@@H](C(N)=O)NC(=O)[C@@H]2CCCN2C(=O)CNC(=O)[C@H](CCC(=O)O)NC(=O)[C@H](CC(=O)O)NC(=O)[C@H](CC(=O)O)NC(=O)CNC(=O)[C@H](CC(C)C)NC(=O)[C@H](Cc2c[nH]cn2)NC(=O)[C@H](CC(C)C)NC(=O)CNC(=O)[C@H](Cc2c[nH]cn2)NC1=O` [copper-64 labelled]: “blood distribution half-life” 2.1 ± 0.2 min (dynamic PET; CD rat, myocardial infarction, left ventricular blood pool; intravenous, 18.5 MBq).
`CC(C)[C@H](NC(=O)[C@H](Cc1c[nH]c2ccccc12)NC(=O)[C@H](CCCNC(=N)N)NC(=O)[C@H](CCCNC(=N)N)NC(=O)[C@@H](NC(=O)[C@@H](NC(=O)[C@H](CCCNC(=N)N)NC(=O)[C@@H](NC(=O)[C@@H](NC(=O)[C@H](CCCNC(=N)N)NC(=O)[C@H](CCCNC(=N)N)NC(=O)[C@@H](NC(=O)[C@H](Cc1c[nH]c2ccccc12)NC(=O)[C@H](CCCNC(=N)N)NC(=O)[C@H](CCCNC(=N)N)NC(=O)[C@@H](NC(=O)[C@H](CCCNC(=N)N)NC(=O)[C@H](CCCNC(=N)N)NC(=O)[C@@H](NC(=O)[C@H](Cc1c[nH]c2ccccc12)NC(=O)[C@H](CCCNC(=N)N)NC(=O)[C@@H](N)CCCNC(=N)N)C(C)C)C(C)C)C(C)C)C(C)C)C(C)C)C(C)C)C(C)C)C(=O)N[C@@H](CCCNC(=N)N)C(=O)N[C@@H](CCCNC(=N)N)C(=O)O` has an organ weight of 4.93% (measured: liver; mice; intravenous, 30 mg/kg; relative to: body weight).
For `CSCC[C@H](NC(=O)CNC(=O)[C@H](CCCCN)NC(=O)[C@H](CC(C)C)NC(=O)[C@@H]1CCCN1C(=O)[C@H](CO)NC(=O)[C@H](Cc1c[nH]cn1)NC(=O)[C@H](Cc1c[nH]c2ccccc12)NC(=O)[C@H](CCCNC(=N)N)NC(=O)[C@H](CC(C)C)NC(=O)[C@H](CCCNC(=N)N)NC(=O)[C@H](Cc1c[nH]c2ccccc12)NC(=O)[C@H](CS)NC(=O)CCCCCNC(=O)CN1CCN(CC(=O)O)CCN(CC(=O)O)CCN(CC(=O)O)CC1)C(=O)O` [copper-64 labelled], the tissue uptake was 2.34 %ID/g (ex vivo biodistribution; BALB/c nude mice, stomach; intravenous, dose not given, 18 h, Huh-7 tumour-bearing).
`CC[C@H](C)[C@H](NC(=O)[C@H](CCCCN)NC(=O)CNC(=O)[C@H](CC(C)C)NC(=O)[C@H](Cc1ccccc1)NC(=O)[C@H](CCCCN)NC(=O)[C@H](CO)NC(=O)[C@H](Cc1ccccc1)NC(=O)[C@H](Cc1c[nH]c2ccccc12)NC(=O)[C@H](CCC(N)=O)NC(=O)[C@@H](NC(=O)[C@H](Cc1ccccc1)NC(=O)CCCCCNC(=O)CN1CCN(CC(=O)O)CCN(CC(=O)O)CCN(CC(=O)O)CC1)C(C)C)C(=O)N[C@@H](CCC(=O)O)C(=O)N1CCC[C@H]1C(=O)N[C@@H](CC(=O)O)C(=O)N[C@H](C(=O)N[C@@H](CO)C(=O)N[C@@H](CCC(N)=O)C(=O)N[C@H](C(=O)N[C@@H](CCC(N)=O)C(=O)N[C@@H](CC(=O)O)C(=O)N1CCC[C@H]1C(=O)N[C@@H](CC(N)=O)C(=O)N[C@@H](CC(=O)O)C(=O)N[C@@H](CCC(N)=O)C(=O)N[C@@H](Cc1ccc(O)cc1)C(=O)N[C@@H](CCC(=O)O)C(=O)N1CCC[C@H]1C(=O)N[C@@H](Cc1ccccc1)C(=O)O)C(C)C)C(C)C` [copper-64 labelled] has an SUVmean of 0.81 SUV (dynamic PET; mouse both sexes, CT26 tumour, untreated, tumour; intravenous, 100 µCi/mouse, 270 s).
`N=C(N)NCCC[C@@H](NC(=O)[C@H](N)Cc1c[nH]c2ccccc12)C(=O)N[C@H](CCCCN)C(=O)N[C@H](Cc1c[nH]c2ccccc12)C(=O)N[C@H](CCCNC(=N)N)C(=O)N[C@H](CCCCN)C(=O)N[C@H](Cc1c[nH]c2ccccc12)C(=O)N[C@H](CCCNC(=N)N)C(=O)N[C@H](CCCCN)C(=O)N[C@H](Cc1c[nH]c2ccccc12)C(=O)N[C@H](CCCNC(=N)N)C(=O)N[C@H](CCCCN)C(N)=O` has an organ index of 4.8 (mouse, liver; intravenous, 30 mg/kg single dose, 7 days).
`CSCC[C@H](N)C(=O)N[C@@H](C)C(=O)N[C@@H](CCCNC(=N)N)C(=O)N[C@@H](CCCNC(=N)N)C(=O)N[C@@H](CC(=O)O)C(=O)N[C@@H](CCCCN)C(=O)N[C@H](C(=O)N[C@@H](CC(=O)O)C(=O)N[C@@H](Cc1ccccc1)C(=O)N[C@@H](C)C(=O)N[C@@H](CCCNC(=N)N)C(=O)N[C@@H](CCCNC(=N)N)C(=O)N[C@@H](CCCNC(=N)N)C(=O)N[C@@H](CCCNC(=N)N)C(=O)NCCCCCC(=O)NCCCCC(NC(=O)CCCCCNC(=O)[C@H](CCCNC(=N)N)NC(=O)[C@H](CCCNC(=N)N)NC(=O)[C@H](CCCNC(=N)N)NC(=O)[C@H](CCCNC(=N)N)NC(=O)[C@H](C)NC(=O)[C@H](Cc1ccccc1)NC(=O)[C@H](CC(=O)O)NC(=O)[C@@H](NC(=O)[C@H](CCCCN)NC(=O)[C@H](CC(=O)O)NC(=O)[C@H](CCCNC(=N)N)NC(=O)[C@H](CCCNC(=N)N)NC(=O)[C@H](C)NC(=O)[C@@H](N)CCSC)[C@@H](C)O)C(=O)NCCCCC(NC(=O)C(CCCCNC(=O)CCCCCNC(=O)[C@H](CCCNC(=N)N)NC(=O)[C@H](CCCNC(=N)N)NC(=O)[C@H](CCCNC(=N)N)NC(=O)[C@H](CCCNC(=N)N)NC(=O)[C@H](C)NC(=O)[C@H](Cc1ccccc1)NC(=O)[C@H](CC(=O)O)NC(=O)[C@@H](NC(=O)[C@H](CCCCN)NC(=O)[C@H](CC(=O)O)NC(=O)[C@H](CCCNC(=N)N)NC(=O)[C@H](CCCNC(=N)N)NC(=O)[C@H](C)NC(=O)[C@@H](N)CCSC)[C@@H](C)O)NC(=O)CCCCCNC(=O)[C@H](CCCNC(=N)N)NC(=O)[C@H](CCCNC(=N)N)NC(=O)[C@H](CCCNC(=N)N)NC(=O)[C@H](CCCNC(=N)N)NC(=O)[C@H](C)NC(=O)[C@H](Cc1ccccc1)NC(=O)[C@H](CC(=O)O)NC(=O)[C@@H](NC(=O)[C@H](CCCCN)NC(=O)[C@H](CC(=O)O)NC(=O)[C@H](CCCNC(=N)N)NC(=O)[C@H](CCCNC(=N)N)NC(=O)[C@H](C)NC(=O)[C@@H](N)CCSC)[C@@H](C)O)C(N)=O)[C@@H](C)O` (stereo partly shown) has a tissue distribution of 3% and 1.28% and 0.93% (C57BL/6 mouse female, uterus; dose not given, 3 h; relative to: total).
`CC(=O)N[C@H](C(=O)N[C@@H](CCCC(=O)OC(C)(C)C)C(=O)N[C@@H](CCC1CCCCC1)C(=O)N[C@@H](CC(=O)O)C(=O)COC(=O)c1c(C)cccc1C)C(C)(C)C` gave an ALT of 520 U/L and 468 U/L and 372 U/L and 426 U/L and 450 U/L and 446 U/L (C57BL/6N mouse, serum; concentration not given, together with: LPS).
For `[2H]C([2H])([2H])C1(C([2H])([2H])[2H])NC(=O)N(c2ccc(F)c(C(C)(F)F)c2)C1=O`, the MTD was over 150 mg/kg (beagle dog, male and female; oral, single dose).
The unchanged compound of `N#[11C]c1ccc(-c2csc(NN=C3CCCC3)n2)cc1` is reported as 49.4% and 49% (radio-HPLC; C57BL/6 mouse, heart; intravenous, 37 MBq, 15 min).
`CC(=O)NCCCC[C@@H]1NC(=O)[C@H](Cc2c[nH]c3c(C)cccc23)NC(=O)[C@H]([C@@H](C)O)NC(=O)[C@H](CC(N)=O)NC(=O)[C@@H](NC(C)=O)C(C)(C)SSC(C)(C)[C@@H](C(=O)N[C@@H](Cc2ccc(OCCN)cc2)C(=O)N[C@@H](Cc2ccc3ccccc3c2)C(=O)NC2(C(=O)N[C@@H](CCC(=O)O)C(=O)N[C@@H](CC(N)=O)C(=O)N[C@@H](Cc3cccnc3)C(=O)N(C)CC(N)=O)CCOCC2)NC1=O` — result for “whole blood to plasma concentration ratio”: 0.7 ± 0.04 (cynomolgus monkey, blood; 0.13 µM, 2 h).
With `CCCCCCCCCCCCCCCC(=O)N[C@@H](CCCNC(=N)N)C(=O)N[C@@H](Cc1c[nH]c2ccccc12)C(=O)N[C@@H](CCCCN)C(=O)N[C@H](C(=O)N[C@@H](Cc1ccccc1)C(=O)N[C@@H](CCCCN)C(=O)N[C@@H](CCCCN)C(=O)N[C@H](C(=O)N[C@@H](CCC(=O)O)C(=O)N[C@@H](CCCCN)C(=O)N[C@H](C(=O)NCC(=O)N[C@@H](CCC(N)=O)C(=O)N[C@@H](CC(N)=O)C(=O)N[C@H](C(=O)N[C@@H](CCCNC(=N)N)C(=O)N[C@@H](CC(=O)O)C(=O)NCC(=O)N[C@H](C(=O)N[C@H](C(=O)N[C@@H](CCCCN)C(=O)N[C@@H](C)C(=O)NCC(=O)N1CCC[C@H]1C(=O)N[C@@H](C)C(=O)N[C@H](C(=O)N[C@@H](C)C(=O)N[C@H](C(=O)N[C@H](C(=O)NCC(=O)N[C@@H](CCC(N)=O)C(=O)N[C@@H](C)C(=O)N[C@@H](C)C(=O)N[C@H](C(=O)N[C@H](C(N)=O)[C@@H](C)CC)[C@@H](C)O)C(C)C)C(C)C)C(C)C)C(C)C)[C@@H](C)CC)[C@@H](C)CC)C(C)C)[C@@H](C)CC)[C@@H](C)CC` the hemolysis was about 60% (mouse erythrocytes; 50 µM, 1 h, 37 °C).
Under “organ-to-body weight ratio”, `O=C1NC2(CC2)COc2ncc(F)cc2[C@H]2COCCN2c2ccn3ncc1c3n2` is recorded as 0.027 ± 0.006% (Sprague-Dawley rat, female, adrenals; oral, 5 mg/kg/day, 4 weeks dosing, end of recovery).
With `CCCCCCCCCCCCCCCC(=O)N[C@@H](CCC(=O)NCCOCCOCCC(=O)NCCOCCOCCC(=O)NCCCC[C@H](NC(=O)[C@H](CC(=O)O)NC(=O)[C@H](CC(C)C)NC(=O)[C@H](Cc1ccc(O)cc1)NC(=O)[C@H](CCCCN)NC(=O)[C@H](CO)NC(=O)[C@H](Cc1ccc(O)cc1)NC(=O)[C@H](CC(=O)O)NC(=O)[C@H](CO)NC(=O)[C@@H](NC(=O)[C@H](Cc1ccccc1)NC(=O)[C@@H](NC(=O)CNC(=O)[C@H](CCC(N)=O)NC(=O)[C@@H](CO)NC(=O)[C@@H](N)Cc1c[nH]cn1)[C@@H](C)O)[C@@H](C)O)C(=O)N[C@@H](CCCNC(=N)N)C(=O)N[C@@H](CCCNC(=N)N)C(=O)N[C@@H](C)C(=O)N[C@@H](CCC(N)=O)C(=O)N[C@@H](CC(=O)O)C(=O)N[C@@H](Cc1ccccc1)C(=O)N[C@H](C(=O)N[C@@H](CCC(N)=O)C(=O)N[C@@H](Cc1c[nH]c2ccccc12)C(=O)N[C@@H](CC(C)C)C(=O)N[C@@H](CC(C)C)C(=O)N[C@@H](CC(N)=O)C(=O)N[C@H](C(=O)NCC(=O)NCC(=O)N1CCC[C@H]1C(=O)N[C@@H](CO)C(=O)N[C@@H](CO)C(=O)NCC(=O)N[C@@H](C)C(=O)N1CCC[C@H]1C(=O)N1CCC[C@H]1C(=O)N1CCC[C@H]1C(=O)N[C@@H](CO)C(N)=O)[C@@H](C)O)C(C)C)C(=O)O` the total bilirubin was 9.4 ± 6 µmol/L (rhesus monkey, male; subcutaneous, 300 µg/kg once daily, 28 days).
For `O=C(O)c1ccc(-c2nc(-c3ccccc3Cl)c3sccn23)cc1`, the plasma concentration was 18.9 ng/mL and 34.2 ng/mL (mouse; oral, dose not given, day 11, together with: 5-fluorouracil).
The equilibrium solubility of `CC1COC2=C1C(=O)C(=O)c1c2ccc2c1C(OC(=O)CNC(=O)C(N)CCC(=O)O)CCC2(C)C` (mixture of isomers) is reported as 5.14 mg/mL (saline; 24 h, 25 °C).
